Assay results pooled from the literature.
A part holds a random share of what one study measured. Positions count from the first letter of the parent shown.

Study 1 — technique: RNA Bind-n-Seq; molecule type: RNA; medium: in vitro; tested at: 365 nM; baseline: no-protein control; direction: higher = stronger binding
Target: RNA binding protein fox-1 homolog 2, RRM domain, GST-SBP tag (RBFOX2, Homo sapiens, UniProt O43251-10, residues 100-194)
Notes: natural RNA segment, single round, ends assumed
Shared flanks, not repeated: GGGAGUUCUACAGUCCGACGAUC … UGGAAUUCUCGGGUGCCAA
Target sequence (chain): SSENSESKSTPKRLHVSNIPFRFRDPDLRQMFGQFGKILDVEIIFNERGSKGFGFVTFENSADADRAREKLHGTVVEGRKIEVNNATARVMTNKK
Strand | RBNS enrichment (R)
GUUUUGCGAUCCUAGGAUGCGUCCCAGACGCUCAGUCAGAAGUGCUGGAGGUGGGGCCUGGGAAGCUGUAUUUGUAAUGAACUCUGGUGUUUUUUGUCCAUUAAAGUGUA | 2.05
GAGUAGUGCAUUUAAUUAUUUUUUAAAAAACUUUUUAAGUACUUGAAUUUUAUAUCAGGAAAACAAAGUUGUUGAGCCUUGCUUCUUCCGUUUUGCCCUUUGUCUCGCUC | 0.467
GCGAGAAUGUCCUGCUGGUUCAUCUUGCACAGUGCCAGCUCAGCCUGAGCUUUGGUUUUUAGAAAUAAAGUGCAUGAAUUGCUGCUAUGCUGUAUCCUAGUAUCCCAGUG | 0.802
UCUUUCUUGGUUUCCAGAGGAACUGAGCCUGAGUGGGCUCUGCCAGUGCCUAGUGGAACUGUCCACCCAGCCAGCCACUGUGUGUUAUGGUUCUGCAACCACCAGGGAGG | 0.25
UGGCAUUAAAGGCUGUGCUCACGUGACAAGAGUGCCUUUGAGCUGUAAUGACCAGUGUUUAGAGUCCCUGUUGCUGAUACCUUUGAGUGAUUGACACCUGCUGCUUUUGA | 2.2
CUCGACCUGAAGAUUAUCGGCUAUAAGAGAAUAAGAAUUGCAGAAAAUAACAGUGAAGUGAUUGAAACUUUCUUCUGAUGAGUUUCUCUAACCUACAGGAUGGAGUAAAA | 0.416
UUUUAAAAAAUGUAUUCUACUGUAACAAGUUAAUAAAGAGAUUUUUUAAAAAACUAUAAACUAGAAAUUGAGAGUCUUGCAUUCUCUUUUGUAUUUGAUUAUUGUGUCUG | 0.51
AGCAGUCACCUGCUGUCACUAGUGCAUGGGAAGACAGAUGCACAGAAGAGCCAGGUAGCACCUGAAAACGCUGCACGUGUGUUUGUGAAACCUGUAGUGAAGUAGACUUG | 0.915
GCCUGCCCUGCUCCCUCUCUGGCUCCCAGAAGAUCACAUGCUACCUCUGUCUCAUUUACAAAUUGGGGUAUAUCCUAAGUCAUGUCAAACUGCCGAUUUCAGGACUGGGA | 0.464
UUUGAGGCCCCAGGUGAAGCGGGGCCCUACUCCGGCCUCUGCCUUGGGCCUCGCCUCUGUCCUCAGGUCCUCUCAGAGGCAGAUACCUAGGGGAGCUGCUGCUGCCUGCU | 0.354
UGCUUUCUGUAAUUGCACUGUGGAUAAAUGUUCCGAGAGUCUCCAUUGUUGUACAGGAUCUUCAGUUAUUCGAGGGGAAUGAGGCAGGUCAAGCCGAUGCUAGCCACUAG | 0.927
CUCCGAGGCCGACGAGAUGGCCAAGGCGCUGGAGGCGGAGCUCAACGACCUCAUGUGAGCGCGGGCAGCGGGCAGGGACUGAAGCCUGACCGACCUCCAGCAGCACUCGG | 0.343

Study 2 — technique: protein binding microarray; molecule type: double-stranded DNA, one strand shown; medium: in vitro; tested at: not given; baseline: not given; direction: higher = stronger binding
Target: Histone acetyltransferase KAT6A, winged helix 1, GST fusion (KAT6A, Homo sapiens, UniProt Q92794, residues 1-85)
Notes: 8-mer, flanks averaged, mean of 2 arrays, mostly near background
Construct (chain): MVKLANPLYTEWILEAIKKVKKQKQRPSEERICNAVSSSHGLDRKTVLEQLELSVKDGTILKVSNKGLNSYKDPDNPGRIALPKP
Strand | E-score
GACTTAAA | -0.133
AGTGTTAC | -0.0112
CAGTACAG | -0.184
GATACTGA | 0.0419
CGCATCCG | 0.353
ACTAATCG | 0.0754
ACTTGTAT | -0.177
CGATATCG | 0.108
GGACGGCC | 0.384
GCCCGCGA | 0.337
ACACAGGG | -0.00238
ATTCTTGC | 0.0448
GGATTTTA | -0.0717
ATCTCAAT | -0.147
ATTAAAGC | -0.0387
CCATGTAG | 0.00852
GCCGAGCC | 0.241

Study 3 — target: CCNF, cyclin fold, Cln2 fusion (human); technique: yeast growth competition, sequencing; medium: yeast; notes: strong parent motif; baseline: not given; direction: higher = stronger binding
Starting sequence: INSM1 docking peptide (human); PKAIRKLHFEDEV; partner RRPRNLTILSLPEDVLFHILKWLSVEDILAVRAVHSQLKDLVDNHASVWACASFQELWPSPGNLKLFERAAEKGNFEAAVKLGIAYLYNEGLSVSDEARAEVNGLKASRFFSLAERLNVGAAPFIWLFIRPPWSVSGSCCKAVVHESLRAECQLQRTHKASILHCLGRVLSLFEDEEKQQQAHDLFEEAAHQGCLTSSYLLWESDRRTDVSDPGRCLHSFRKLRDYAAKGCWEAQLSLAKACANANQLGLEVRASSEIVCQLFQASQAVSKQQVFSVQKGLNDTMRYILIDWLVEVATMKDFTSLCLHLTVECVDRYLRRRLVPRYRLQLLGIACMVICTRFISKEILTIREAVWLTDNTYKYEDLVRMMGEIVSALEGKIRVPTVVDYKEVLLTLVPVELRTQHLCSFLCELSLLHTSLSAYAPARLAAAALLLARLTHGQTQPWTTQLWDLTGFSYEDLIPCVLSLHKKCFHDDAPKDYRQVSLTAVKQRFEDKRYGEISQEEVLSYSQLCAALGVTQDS
Substitution | normalised enrichment score
F9Q | 0.649
D11W | 7.86
E10P | 8
L7E | -0.0175
K2N | 6.89
K6Q | 7.42
A3P | 7.32

Other studies, line by line
Molecule | target | assay | test system | conditions | scale | quantity | result
PhoQ, residues 284 288 289 292 302 303 GASLAW | PhoP, residues 12 14 15 18 19 QWHVF (Escherichia coli, UniProt P23836) | Sort-seq, item: YFP reporter | E. coli | PhoQ-PhoP variant library, added: 10 µM Mg2+ | baseline: high Mg2+ state, higher = stronger signaling | fold induction | 0.829

Some of these lines once more (study 2):
Strand | E-score
ATCTCAAT | -0.147
CGATATCG | 0.108
ATTCTTGC | 0.0448
GATACTGA | 0.0419
GCCGAGCC | 0.241
CAGTACAG | -0.184
